Results of several laboratories.
Parts stem from different laboratories: compare values within a part only. Changes are numbered by the printed parent chain.

Study 1 — technique: DHFR PCA, deep sequencing; matrix: yeast; added: (+)-ABA 0 µM; relative to: wild-type fitted maximum; reading: higher = stronger binding; endpoint: relative binding score
Target: ABI1, truncated, D143A, DHFR fusion (Arabidopsis thaliana)
Setting: methotrexate growth selection, single substitutions
Parent: PYL1, truncated, DHFR fusion (Arabidopsis thaliana); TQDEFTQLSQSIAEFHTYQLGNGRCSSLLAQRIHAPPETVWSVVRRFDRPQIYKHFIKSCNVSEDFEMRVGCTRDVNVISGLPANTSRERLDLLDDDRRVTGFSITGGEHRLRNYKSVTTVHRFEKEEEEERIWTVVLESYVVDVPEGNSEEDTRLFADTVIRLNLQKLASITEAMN
N149W: 12%
R74Q: 8.14%
D95L: -9.03%
W41R: 5.74%
I172V: 47.2%
V70A: 6.58%
Q167W: -2.75%
P146M: 17.9%
K54N: -3.88%
D92R: 9.25%
E127L: 27.3%
D48S: -1.82%
E64Q: 28.7%
E147D: 38.1%
E129Y: 10.2%
I52V: 43.2%
S63Q: 15.6%
R155A: -4.2%
N85S: 50.6%
Q19S: 25.8%
N77T: 62.5%
K58F: -4.3%
L138S: 3.38%
W41M: 0.0958%
D153E: 15%

Study 2 — technique: protein binding microarray; molecule type: double-stranded DNA, one strand shown; matrix: in vitro; concentration: not given; relative to: not given; reading: higher = stronger binding; endpoint: E-score
Target: Histone acetyltransferase KAT6A, winged helix 1, GST fusion (KAT6A, Homo sapiens, UniProt Q92794, residues 1-85)
Setting: 8-mer, flanks averaged, mean of 2 arrays, mostly near background
Residues (chain): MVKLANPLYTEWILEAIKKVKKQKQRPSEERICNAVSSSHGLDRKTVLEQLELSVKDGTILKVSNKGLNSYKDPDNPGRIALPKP
ATGCATTG: -0.279
ATACGTTA: -0.117
ACCGCCGA: 0.309
CGGACACC: 0.176
AATAGATC: -0.104
TACAAGCA: -0.0734
AGTCCATA: -0.0946
CTGACTAA: -0.0112
AAGTCTTA: -0.123
TACCGGCA: 0.345
CGGGGAAC: 0.177
AAATTGTA: -0.137
TAACTTAA: -0.113
GTCCCATA: -0.0491
TTACGGAA: 0.182
CCGTTGAC: 0.215
CCGTCAGA: 0.2
ATTGAGAG: -0.0865
TCAGCCCA: -0.163
AGGTGCAA: -0.204
ACCCCACC: -0.0208
CGATTTTA: 0.0635
CAAACATG: 0.00639
ACGATAAG: -0.0707

Study 3 — target: CCNA1, cyclin fold, Cln2 fusion (human); technique: yeast growth competition, sequencing; matrix: yeast; setting: weak parent motif; relative to: not given; reading: higher = stronger binding; endpoint: normalised enrichment score
Parent: MICAL3 docking peptide (human); LQLRRQLSFSEDS; partner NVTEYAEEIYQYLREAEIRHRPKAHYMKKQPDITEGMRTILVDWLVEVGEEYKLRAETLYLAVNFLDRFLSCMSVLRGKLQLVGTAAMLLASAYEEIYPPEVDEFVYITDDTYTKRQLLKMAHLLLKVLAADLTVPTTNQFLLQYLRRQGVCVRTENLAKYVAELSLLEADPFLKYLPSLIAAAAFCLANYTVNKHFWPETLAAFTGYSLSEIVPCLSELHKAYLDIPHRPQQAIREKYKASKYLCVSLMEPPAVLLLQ
LQLRGQLSFSEDS [R5G]: 0.00422
LQLRRQLLFSEDS [S8L]: 0.615
LQLRRQWSFSEDS [L7W]: -0.048
LQLRRQLRFSEDS [S8R]: -0.0287
LQLRRMLSFSEDS [Q6M]: 0.307
LQLMRQLSFSEDS [R4M]: -0.0201
LQLRRQLSFVEDS [S10V]: 0.175
LQLRRQKSFSEDS [L7K]: 0.0927
LQLRRHLSFSEDS [Q6H]: -0.0104
LLLRRQLSFSEDS [Q2L]: 0.397
LQLKRQLSFSEDS [R4K]: 0.179
LQLRRQGSFSEDS [L7G]: 0.335
LQLRRQLSFSERS [D12R]: 0.298
LQLRRQLSFSEYS [D12Y]: 0.111
LQTRRQLSFSEDS [L3T]: 1.19
LQLRRQLSFSEVS [D12V]: 0.43

Study 4 — technique: competition protein-binding microarray; molecule type: double-stranded DNA, one strand shown; matrix: in vitro; concentration: 2 µM; added: Pho4 competitor, 0.05 µM; reading: higher = stronger binding; endpoint: fluorescence intensity; constant ends, left off below: … GTCTTGATTCGCTTGACGCTGCTG
Target: Centromere-binding protein 1, full length, His-tagged (CBF1, Saccharomyces cerevisiae, UniProt P17106, residues 1-351)
Sequence of UniProt P17106 (whole entry, looked up): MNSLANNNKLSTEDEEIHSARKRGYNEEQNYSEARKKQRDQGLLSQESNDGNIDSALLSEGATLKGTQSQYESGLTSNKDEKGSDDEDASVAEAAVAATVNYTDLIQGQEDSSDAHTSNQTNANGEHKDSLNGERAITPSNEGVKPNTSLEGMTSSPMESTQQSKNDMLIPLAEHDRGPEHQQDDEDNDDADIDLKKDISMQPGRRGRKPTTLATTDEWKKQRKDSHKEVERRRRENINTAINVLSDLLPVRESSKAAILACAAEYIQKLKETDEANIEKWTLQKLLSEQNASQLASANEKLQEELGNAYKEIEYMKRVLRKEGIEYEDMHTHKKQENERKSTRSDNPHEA
Setting: whole 60-bp probe, lowest competitor level
CAAAGAACATCAAGGCTCGTGTTGGTTCTCTACCAG: 76.4 a.u.
TATTCATTGCAGTTACACGTGAAGGCTAAACTTTAT: 895 a.u.
CTTTCCCGATCTTGTCACGGCACTTTAGCACATTTG: 100 a.u.
CTGAAACAAAACGGCCACGTGCTGTTTCAGCCTTGA: 1760 a.u.
GGCCAAACAACCAGGGTCGTGCCAGTATTTGGCGCC: 55.2 a.u.
AGGGAACAGTGCCTACACGTGGCTTGCAATCCACTA: 758 a.u.
CTTCTGTAAATTTTTCACGTGACTTGACGCGCCCCG: 6040 a.u.
ACCCGGGCAGCCGTTTCCGTGCCGAGGTTCCTCCGA: 44.8 a.u.
TAAACTTCGAATTCCTTCGTGCTTTACTAAGACAAA: 78.3 a.u.
CGGGGTTAAGTTTGCCGCGTGGGTGGCTTGCAGCAG: 74.1 a.u.
CTAACGAAGGTTTGGACTGTGGGTGACAAGCCAAGT: 62.6 a.u.
TGCTGTTTCCTTGTCCACGTGAGTCAGTTCTGCAGA: 2180 a.u.
TGATCCGTTCGCAATCACGTTGTTACTATTCGAGGA: 632 a.u.
CTAACGAAGGTTTTTCACGTGGGATACAAGCCAAGT: 606 a.u.
CGTCCTAGTGATTTTCACGTGCAGTCCATGAGGAAG: 1140 a.u.
TGGTCGAGCTTTTTTCACATGCGGTGGGGAAGGCGG: 73.7 a.u.
AAAGCGGTAATTTGCGTCGTGGGTGCAGATATCTAT: 73.2 a.u.
CATACCCAACCTTTTCACGTGCGCTAAGATATTTGT: 934 a.u.
CATACACCAAACGCAAATGTGCGGACGGACAAATTC: 87 a.u.
GTCAATACTCTAATAGCTGTGATGAAAATCATAATA: 88.6 a.u.
GTCTTGTCTCATTTTCACGTGTTTTTCCCCACTTCA: 737 a.u.
TTGGGCTGGTGCGATTTCGTGGGTAGTATTCAGGAC: 72.9 a.u.
CAGTCTACCAAGGTGAACGTGTCCACTGTAAAGAAA: 94.1 a.u.
GATTTGTTGTGTAATAGCGTGATGGGCACTTGAATG: 152 a.u.
TTGCCATCCGGATTGAACGTGTAGCAGTTTTTAAAG: 84.4 a.u.

Study 5 — technique: protein-binding microarray; molecule type: double-stranded DNA, one strand shown; matrix: in vitro; concentration: 2200 nM top; setting: 60-bp whole probe; added: salmon DNA 0.4 mg/ml; relative to: random background probes; reading: higher = stronger binding; endpoint: fitted relative affinity; constant ends, left off below: GCCTAGCAC … GTCTTGATTCGCTTGACGCTGCTG
Target: Interferon regulatory factor 7, full length, phosphomimetic (IRF7, Homo sapiens, UniProt Q92985, residues 1-503, S471D/S472D/S475D/S476D/S477D/S483D/S484D/S487D)
Sequence of UniProt Q92985 (whole entry, unmodified, looked up): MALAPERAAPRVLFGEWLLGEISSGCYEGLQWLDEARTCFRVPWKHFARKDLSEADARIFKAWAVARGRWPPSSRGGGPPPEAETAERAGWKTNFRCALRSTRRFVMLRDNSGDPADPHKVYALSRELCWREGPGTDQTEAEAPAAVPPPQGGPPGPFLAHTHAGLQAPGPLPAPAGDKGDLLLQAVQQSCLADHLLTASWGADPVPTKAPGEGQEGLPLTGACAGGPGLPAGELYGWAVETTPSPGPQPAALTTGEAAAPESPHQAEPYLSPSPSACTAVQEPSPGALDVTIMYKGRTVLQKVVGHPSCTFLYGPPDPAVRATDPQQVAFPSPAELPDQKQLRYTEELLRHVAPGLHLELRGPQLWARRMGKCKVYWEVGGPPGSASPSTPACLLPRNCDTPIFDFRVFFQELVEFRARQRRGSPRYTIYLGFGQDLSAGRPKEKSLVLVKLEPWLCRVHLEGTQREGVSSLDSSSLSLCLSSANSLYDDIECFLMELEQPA
GACGATATCAGTATCGAGCCGTGCTAG: 0.209 z-score
GACGGACTAGGGACTGGGGACGTGCTA: -0.937 z-score
GACGGTCTCCTTATCCGGACGTGCTAG: 0.62 z-score
GACGGTAGCGACTATCGGGACGTGCTA: -0.622 z-score
TCACCCCTCTCATTCCAACTGTGCTAG: 1.73 z-score
TACGGTATCCTTTTCCTGACGTGCTAG: 1.88 z-score
GACGGTATCGGGATTGGGGACGTGCTA: -0.238 z-score
AAGTTTCTCCTTTGTAAATAGTGCTAG: 2.7 z-score
TCATAATTCTGATTGGAACTGTGCTAG: 0.388 z-score
TCAAGCCTCTGTTTTGAACTGTGCTAG: 0.826 z-score
GACGGACTGGATTTTCGGGACGTGCTA: 1.29 z-score
CTTCCCCTCTAGGTTCTCTGAGTGCTA: 1.25 z-score
TCAATCGTAAGCAAAAAACTGTGCTAG: -0.402 z-score
TTAGATTTGAGTTTCGATTAGTGCTAG: 4 z-score
TTAGGTTTCCTTTTCCTTAAGTGCTAG: 5.84 z-score
GAACATTTCAATTAGAAAAAGTGCTAG: -0.613 z-score

Single results of other studies — technique: cross-linking MS; HNRNPD: HNRNPD (Homo sapiens, UniProt Q14103)
PGRMC1 (Homo sapiens, UniProt O00264)
cross-linked residues (DHCR24 (Homo sapiens, UniProt Q15392); cell fractions; added: DSSO): K102 to K446

HNRNPDL (Homo sapiens, UniProt O14979)
interaction screen (HNRNPD; hits only): cross-linked

HNRNPA2B1 (Homo sapiens, UniProt P22626)
interaction screen (HNRNPD; hits only): cross-linked

EXOSC10 (Homo sapiens, UniProt Q01780)
cross-linked residues (C1D (Homo sapiens, UniProt Q13901); cell fractions; added: DMTMM): E23 to K46

Some of these lines once more (study 2):
ATGCATTG: -0.279
CGGACACC: 0.176
CCGTTGAC: 0.215
ATACGTTA: -0.117
ACCCCACC: -0.0208
AAATTGTA: -0.137
